Published values gathered from unrelated publications.
Each numbered part is a random draw from the data of one study; scales do not carry over between parts.

Study 1
Target: RNA binding protein fox-1 homolog 2, RRM domain, GST-SBP tag (RBFOX2, Homo sapiens, UniProt O43251-10, residues 100-194)
Technique: RNA Bind-n-Seq
Form: RNA
Sample: in vitro
Concentration: 365 nM
Setting: natural RNA segment, single round, ends assumed
Baseline: no-protein control
Reading: higher = stronger binding
Quantity: RBNS enrichment (R)
Target sequence (chain): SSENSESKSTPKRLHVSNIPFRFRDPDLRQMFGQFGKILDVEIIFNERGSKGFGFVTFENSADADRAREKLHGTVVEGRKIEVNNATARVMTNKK
Strand = GGGAGUUCUACAGUCCGACGAUCUGAGAAAGUGGACUUAACCGAAAUGGAACCAACUGACAUUCUAUCGUGUUGUACAUAGAAUGAUGAAGGGUUCCACUGUUGUUGUAUGUCUUAAAUUUAUUUAAAACUUUUGGAAUUCUCGGGUGCCAA; value = 0.465
Strand = GGGAGUUCUACAGUCCGACGAUCGGCAAAUCCUUCUGCCAUCAGCUGUGUGGGCUUGCCUCUUUGAGCUCAUCUCCCCUCACAGGCUGUCUUCAUGAUGCAGGACCUGGGCACAUGGUCACAUUAUUCCGUUCUGGAAUUCUCGGGUGCCAA; value = 0.194
Strand = GGGAGUUCUACAGUCCGACGAUCCAAGAAGUUGAAACAGUUAGUUAUGUAGUUGAAGCAAUUUGUGUGCAAAGCCUACAUCUAAACACUUGAGUGAAUAAUCAUUAACUGCUCAGUACCAGACGUGGCAAAUCUGGAAUUCUCGGGUGCCAA; value = 0.405
Strand = GGGAGUUCUACAGUCCGACGAUCUCUGUCCCUGGUUCAACUGUGAUUUGGCUUUCCCGUGUCUUUCCUGGUGAUGCCUUGUUUGGGGUUCUGUGGGUUUGGGUGGGAAGAGGGCCAUCUGCCUGAAUGUAACCUGGAAUUCUCGGGUGCCAA; value = 0.648

Study 2
Target: Interferon regulatory factor 3, full length, phosphomimetic (IRF3, Homo sapiens, UniProt Q14653, residues 1-427, S386D/S396D/S398D/S402D/T404D/S405D)
Technique: protein-binding microarray
Form: double-stranded DNA, one strand shown
Sample: in vitro
Concentration: 2540 nM top
Setting: 60-bp whole probe
Together with: salmon DNA 0.4 mg/ml
Baseline: random background probes
Reading: higher = stronger binding
Quantity: fitted relative affinity
Constant ends, left off below: GCCTAGCAC … GTGCTAGGTCTTGATTCGCTTGACGCTGCTG
Target sequence (chain): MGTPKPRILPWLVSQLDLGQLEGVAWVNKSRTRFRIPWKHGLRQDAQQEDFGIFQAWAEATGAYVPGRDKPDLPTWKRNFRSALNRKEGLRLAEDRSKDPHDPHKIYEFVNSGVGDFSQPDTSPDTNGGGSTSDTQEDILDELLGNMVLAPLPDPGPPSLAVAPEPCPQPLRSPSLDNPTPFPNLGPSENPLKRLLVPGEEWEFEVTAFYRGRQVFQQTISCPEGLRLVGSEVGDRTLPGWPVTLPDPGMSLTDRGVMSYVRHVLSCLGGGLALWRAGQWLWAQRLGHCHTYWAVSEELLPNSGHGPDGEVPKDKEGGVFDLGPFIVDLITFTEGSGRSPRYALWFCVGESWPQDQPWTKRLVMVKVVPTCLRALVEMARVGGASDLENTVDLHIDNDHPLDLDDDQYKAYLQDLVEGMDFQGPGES
Strand = TCATTTTTCTGAACCATACT; value = 2.12 z-score
Strand = TTAGATTTCAATTTCGATTA; value = 3.1 z-score
Strand = GACGGTCTCGTTATCGGGAC; value = 1.1 z-score
Strand = TCACATACGAGTTTCCATTT; value = 4.62 z-score
Strand = AGTTAATCCCTCTCAGGCAT; value = 0.762 z-score

Study 3
Target: Histone acetyltransferase KAT6A, winged helix 1, GST fusion (KAT6A, Homo sapiens, UniProt Q92794, residues 1-85)
Technique: protein binding microarray
Form: double-stranded DNA, one strand shown
Sample: in vitro
Concentration: not given
Setting: 8-mer, flanks averaged, mean of 2 arrays, mostly near background
Baseline: not given
Reading: higher = stronger binding
Quantity: E-score
Residues (chain): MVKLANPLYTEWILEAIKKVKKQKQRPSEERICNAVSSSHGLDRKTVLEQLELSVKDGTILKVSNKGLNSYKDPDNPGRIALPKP
Strand = GCGCCAGC; value = 0.277
Strand = CTTCCATC; value = -0.206
Strand = GGCTCCGA; value = -0.0204
Strand = ACAGACCG; value = 0.136

Mixed results
Molecule = PhoQ, residues 284 288 289 292 302 303 TTCLQL; target = PhoP, residues 12 14 15 18 19 HHYTI (Escherichia coli, UniProt P23836); assay = Sort-seq, item: YFP reporter; test system = E. coli; conditions = PhoQ-PhoP variant library, together with: 10 µM Mg2+; scale = baseline: high Mg2+ state, higher = stronger signaling; quantity = fold induction; value = 3.16

Excerpt of the above (study 1):
Strand = GGGAGUUCUACAGUCCGACGAUCCAAGAAGUUGAAACAGUUAGUUAUGUAGUUGAAGCAAUUUGUGUGCAAAGCCUACAUCUAAACACUUGAGUGAAUAAUCAUUAACUGCUCAGUACCAGACGUGGCAAAUCUGGAAUUCUCGGGUGCCAA; value = 0.405
Strand = GGGAGUUCUACAGUCCGACGAUCGGCAAAUCCUUCUGCCAUCAGCUGUGUGGGCUUGCCUCUUUGAGCUCAUCUCCCCUCACAGGCUGUCUUCAUGAUGCAGGACCUGGGCACAUGGUCACAUUAUUCCGUUCUGGAAUUCUCGGGUGCCAA; value = 0.194
